Published values of several laboratories.
Lines come from different studies, so protocols differ. Values joined by “and” are separate records of one study, mostly repeats; a detail may differ. Numbers after ± are the reported error.

SMILES | target | assay | test system | conditions | how to read | measurement | value
CNC(=O)c1cc(Oc2ccc(NC(=O)Nc3ccc(Cl)c(C(F)(F)F)c3)cc2)ccn1 | JNK1α1 (human) | kinase activity, inhibitor |  | 0.3 µM |  | inhibition | -7%
O=C(Nc1cc(OCCN2CCCC2)c2ccccc2n1)c1cc(Cl)cc(C(=O)Nc2cc(OCCN3CCCC3)c3ccccc3n2)n1 | K-ras G-quadruplex DNA | FRET melting |  | 1 µM, pH 7.4, with: 60 mM potassium |  | ΔTm | 12.2 ± 0.6 K
CC(C)c1noc2ncc(C(=O)c3ccccc3O)cc12 | Kv2.1 potassium channel | ion current, inhibitor, whole-cell patch clamp |  | 10 µM |  | inhibition | 0.69% and 2.08% and 2.83% and 4.37% and 5.15%
Cc1ncsc1-c1ccc([C@H](CC(=O)NCCOCCOCCOCCOCCOCCC(=O)N2CCC(Nc3cc(C(=O)NC[C@H](O)CN4CCc5ccccc5C4)ncn3)CC2)NC(=O)[C@@H]2C[C@@H](O)CN2C(=O)[C@@H](NC(=O)C2(F)CC2)C(C)(C)C)cc1 | human MEP50 | degrader, Western blot | MDA-MB-468 | 2 µM |  | time to degradation | ≤ 12 h
NCCOc1cc(NC(=O)c2cc(OCc3ccc(F)cc3)cc(C(=O)Nc3cc(OCCN)c4ccccc4n3)n2)nc2ccccc12 | K-ras G-quadruplex DNA | FRET melting |  | 1 µM, pH 7.4, with: 60 mM potassium |  | ΔTm | 10.7 ± 0.5 K
CC(=O)NCCCC[C@H](NC(=O)[C@H](CC(=O)O)NC(=O)[C@H](CO)NC(C)=O)C(=O)Nc1ccc2c(C)cc(=O)oc2c1 | human Y386F/Y782F mutant enzyme | substrate, fluorogenic |  |  |  | kcat | 0.00021 ± 1e-05 s⁻¹
O=S(=O)(NCCNC/C=C/c1ccc(Br)cc1)c1cccc2cnccc12 | PKA | inhibitor | mouse zygotes | 20 µM, injection, hCG, 24 h post, early embryonic development |  | embryos at morula stage | 0%
O=C(Nc1cc(OCCN2CCCC2)c2ccccc2n1)c1cc(OCCN2CCCC2)cc(C(=O)Nc2cc(OCCN3CCCC3)c3ccccc3n2)n1 | K-ras G-quadruplex DNA | FRET melting |  | 1 µM, pH 7.4, with: 60 mM potassium |  | ΔTm | 25.7 ± 0.7 K
COc1ccc(F)cc1C(=O)NCc1ccc(-c2nn([C@@H](C)C(F)(F)F)c(N)c2C(N)=O)cc1 | MEK1/MEK2 human | probe binding, competitive chemoproteomics | human PBMCs | 1 µM |  | inhibition | 11.4%
C#CCOc1cc(C(=O)Nc2cc(OCCCN)c3ccccc3n2)nc(C(=O)Nc2cc(OCCCN)c3ccccc3n2)c1 | K-ras G-quadruplex DNA | FRET melting |  | 1 µM, pH 7.4, with: 60 mM potassium |  | ΔTm | 4.7 ± 0.3 K
C/C=C(/C)C(=O)OC[C@H]1[C@@H](Cc2ccc(C(F)(F)F)cc2)CO[C@@H]1c1ccccc1 | NF-κB | reporter gene | HEK293/NF-κB-luc | 4 h, with: TNFα 2 ng/mL |  | IC50 | ≥ 20 µM
c1coc(-c2n[nH]cc2-c2ccnc3ccccc23)c1 | KIC1 (Candida albicans) | kinase binding, MIB/MS competition | Candida albicans lysate | 10 µM | reference: DMSO | log2 fold change | -0.12
CC(=O)ON=C1C=CC(=C(C#N)c2ccccc2)C=C1 | Leishmania donovani TLK | enzyme activity, inhibitor, ADP-Glo |  | 20 µM, about MIC, with: ATP 10 µM |  | remaining activity | 110%
CC[C@@H]1[C@H](F)C(=O)N[C@@H]1COc1nccc2cc(C(N)=O)c(OC)cc12 | CK1 delta and epsilon | ATP-site probe binding, inhibitor, ActivX ATP probe profiling | THP-1 cell lysate | 0.2 mM, probe site Lys2 |  | inhibition | 53%
CNC(=O)[C@@H]1CC[C@@H](n2c(-c3ccc4cnccc4c3)nc3ccc(C(=O)NCc4cccc(C(N)=O)c4)cc32)C1 | human FLT3 ITD | binding, KINOMEscan |  | 1000 nM | lower = stronger binding | percent of control | 88%
C/C=C(/C)C(=O)OC[C@H]1[C@@H](Cc2ccc(C(F)(F)F)cc2)CO[C@@H]1c1ccc(F)cc1 | NF-κB | reporter gene | HEK293/NF-κB-luc | 4 h, with: TNFα 2 ng/mL |  | IC50 | ≥ 20 µM
CN(C)c1ccc(/C=C2\C(=O)Nc3ccccc32)cc1 | MYC | oncogenic transformation, inhibitor | chicken embryo fibroblasts expressing MYC | 5 µM | reference: untreated | focus formation | < 3%
NCCCOc1cc(NC(=O)c2cccc(C(=O)Nc3cc(OCCCN)c4ccccc4n3)n2)nc2ccccc12 | K-ras G-quadruplex DNA | FRET melting |  | 1 µM, pH 7.4, with: 60 mM potassium |  | ΔTm | 18 ± 0.8 K
O=C(C#Cc1cn(Cc2ccccc2)c(=O)[nH]c1=O)NCc1ccccc1 | MMP-2 | inhibitor, colorimetric |  | 20 µM |  | remaining MMP-2 activity | 101 ± 4%
Oc1ccccc1-c1n[nH]cc1-c1ccnc2ccccc12 | CMK2 (Candida albicans) | kinase binding, MIB/MS competition | Candida albicans lysate | 10 µM | reference: DMSO | log2 fold change | -0.82
CC(Nc1nc(N2CCCC2)nc2ccccc12)c1ccccc1 (stereo not drawn) | transportin-1/2 | FUS nuclear import, high content imaging | HeLa Kyoto reporter | 0.5 µM, 2 h |  | cells with nuclear reporter | 94.2%
Cl.NCCC[C@H](N)C(=O)O | MyBP-C and MYH |  | iPSC-derived cardiomyocytes (human) |  | reference: plate | normalized MyBP-C/MYH ratio | 20.7%
Nc1cc(COc2c(Cl)cc(C[C@H](N)C(=O)O)cc2Cl)c2oc(-c3ccccc3)nc2c1 | B0AT1, LAT1, ASCT2 | radiolabelled uptake | CHO-BC cells | 3 µM, with Na+, with: L-[14C]leucine, GPNA 3 mM |  | L-leucine uptake | 59.9 nmol/6 min/mg protein and 63 nmol/6 min/mg protein and 56.8 nmol/6 min/mg protein
C[C@H]1CCN(c2nccc(-c3cnn4ncccc34)n2)C1 | human kinases, wild type | binding, KINOMEscan panel |  | concentration not given |  | percent of control | 62% and 75% and 84%
COc1cc(-c2cc(-c3ccc(N4CCNCC4)cc3)cnc2N)cc(OC)c1OC | human CK2 | enzyme activity, inhibitor |  | 1 µM |  | inhibition | 3%
O=C(NCC1CCOCC1)c1n[nH]cc1NC(=O)c1c(F)cccc1F | human FLT3 ITD | scanMAX |  | 1 µM | reference: control | remaining binding | 83%
COc1c(O)cc2oc3cc(O)c(CC=C(C)C)c(O)c3c(=O)c2c1CC=C(C)C | MyBP-C and MYH |  | iPSC-derived cardiomyocytes (human) | concentration not given | reference: plate controls (SD units) | MyBP-C/MYH ratio | 8.5
CC(C)N=C(N)c1ccc2nc(-c3ccc(OCc4cccc(COc5ccc(-c6nc7ccc(C(N)=NC(C)C)cc7[nH]6)cc5)c4F)cc3)[nH]c2c1 | PU.1 (mouse) | reporter gene, inhibitor, luciferase reporter | BV-2 cells PU.1-luciferase | concentration not given | reference: DMSO | remaining activity | 88 ± 22%
NCCOc1cc(C(=O)Nc2cc(OCCN)c3ccccc3n2)nc(C(=O)Nc2cc(OCCN)c3ccccc3n2)c1 | K-ras G-quadruplex DNA | FRET melting |  | 1 µM, pH 7.4, with: 60 mM potassium |  | ΔTm | 20.2 ± 0.8 K
CC(=O)N[C@@H](CCCNC(=N)N)C(=O)N[C@@H](CCCNC(=N)N)C(=O)N[C@@H](Cc1ccc2ccccc2c1)C(=O)N[C@H]1CSSC[C@@H](C(=O)N[C@@H](CCCNC(=N)N)C(N)=O)NC(=O)[C@H](CCCNC(N)=O)NC(=O)[C@H](CCCNC(=N)N)NC(=O)[C@H](Cc2ccc(O)cc2)NC(=O)[C@@H]2CCCN2C(=O)[C@@H](CCCCNC(=O)CCCNC(=O)[C@H](CCCCNC(=O)CCCCCN2C(=CC=CC=CC3=[N+](CCCCS(=O)(=O)O)c4ccc(S(=O)(=O)[O-])cc4C3(C)C)C(C)(C)c3cc(S(=O)(=O)O)ccc32)NC(=O)CN(CCN(CC(=O)O)CC(=O)O)CCN(CC(=O)O)CC(=O)O)NC(=O)[C@H](CCCNC(=N)N)NC(=O)[C@H](CCCNC(N)=O)NC(=O)[C@H](Cc2ccc(O)cc2)NC1=O (single isomer, unassigned) | human CXCR4 | longitudinal confocal imaging | MDA-MB-231 CXCR4 | room temperature |  | time to internalisation | ≤ 15 min
